# Results gathered from unrelated publications.
# A part holds a random share of what one study measured. Values joined by “and” are separate records of one study, mostly repeats; a detail may differ.
# Chain of UniProt P21802 (whole entry, looked up): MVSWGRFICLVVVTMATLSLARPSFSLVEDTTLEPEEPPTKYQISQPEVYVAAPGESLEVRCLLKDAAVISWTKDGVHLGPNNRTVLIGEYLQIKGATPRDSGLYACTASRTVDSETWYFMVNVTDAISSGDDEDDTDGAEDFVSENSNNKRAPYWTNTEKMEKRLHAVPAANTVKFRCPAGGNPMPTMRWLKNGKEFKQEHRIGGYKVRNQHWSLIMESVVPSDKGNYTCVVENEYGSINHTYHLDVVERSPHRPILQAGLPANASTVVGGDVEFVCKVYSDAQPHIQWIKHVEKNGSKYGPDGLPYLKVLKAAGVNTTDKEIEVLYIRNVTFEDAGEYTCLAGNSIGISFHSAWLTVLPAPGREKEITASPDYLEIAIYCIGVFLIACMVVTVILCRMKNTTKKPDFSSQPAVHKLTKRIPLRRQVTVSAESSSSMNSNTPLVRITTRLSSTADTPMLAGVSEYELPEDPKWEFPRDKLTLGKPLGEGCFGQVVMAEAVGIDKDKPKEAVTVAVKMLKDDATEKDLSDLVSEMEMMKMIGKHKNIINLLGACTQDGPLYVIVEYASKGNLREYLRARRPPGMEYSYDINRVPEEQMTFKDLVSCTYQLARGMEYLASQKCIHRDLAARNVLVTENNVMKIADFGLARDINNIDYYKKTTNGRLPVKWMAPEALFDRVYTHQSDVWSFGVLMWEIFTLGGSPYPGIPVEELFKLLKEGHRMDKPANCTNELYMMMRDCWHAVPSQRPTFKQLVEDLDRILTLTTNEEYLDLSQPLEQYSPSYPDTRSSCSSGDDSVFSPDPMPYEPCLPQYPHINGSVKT
# Chain of UniProt Q9NRH2 (whole entry, looked up): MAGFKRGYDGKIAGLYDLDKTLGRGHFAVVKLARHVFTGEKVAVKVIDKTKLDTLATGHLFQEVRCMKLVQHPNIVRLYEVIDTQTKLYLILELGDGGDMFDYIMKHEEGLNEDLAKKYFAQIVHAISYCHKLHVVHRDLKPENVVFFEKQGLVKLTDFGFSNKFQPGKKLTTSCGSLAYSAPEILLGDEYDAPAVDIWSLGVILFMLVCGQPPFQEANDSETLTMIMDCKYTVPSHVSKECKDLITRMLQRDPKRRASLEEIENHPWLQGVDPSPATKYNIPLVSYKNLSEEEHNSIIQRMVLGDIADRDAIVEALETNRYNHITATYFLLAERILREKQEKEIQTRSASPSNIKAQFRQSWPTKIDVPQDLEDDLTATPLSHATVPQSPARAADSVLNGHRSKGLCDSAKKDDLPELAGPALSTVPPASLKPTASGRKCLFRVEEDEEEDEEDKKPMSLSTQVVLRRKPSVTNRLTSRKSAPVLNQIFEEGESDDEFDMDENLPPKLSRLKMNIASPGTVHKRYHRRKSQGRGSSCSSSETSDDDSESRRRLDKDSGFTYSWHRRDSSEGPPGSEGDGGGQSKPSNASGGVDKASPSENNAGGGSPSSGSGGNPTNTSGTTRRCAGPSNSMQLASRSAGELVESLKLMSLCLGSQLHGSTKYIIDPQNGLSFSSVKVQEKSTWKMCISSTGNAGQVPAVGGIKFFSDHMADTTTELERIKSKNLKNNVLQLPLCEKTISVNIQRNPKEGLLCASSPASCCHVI
# Chain of UniProt Q05655 (whole entry, looked up): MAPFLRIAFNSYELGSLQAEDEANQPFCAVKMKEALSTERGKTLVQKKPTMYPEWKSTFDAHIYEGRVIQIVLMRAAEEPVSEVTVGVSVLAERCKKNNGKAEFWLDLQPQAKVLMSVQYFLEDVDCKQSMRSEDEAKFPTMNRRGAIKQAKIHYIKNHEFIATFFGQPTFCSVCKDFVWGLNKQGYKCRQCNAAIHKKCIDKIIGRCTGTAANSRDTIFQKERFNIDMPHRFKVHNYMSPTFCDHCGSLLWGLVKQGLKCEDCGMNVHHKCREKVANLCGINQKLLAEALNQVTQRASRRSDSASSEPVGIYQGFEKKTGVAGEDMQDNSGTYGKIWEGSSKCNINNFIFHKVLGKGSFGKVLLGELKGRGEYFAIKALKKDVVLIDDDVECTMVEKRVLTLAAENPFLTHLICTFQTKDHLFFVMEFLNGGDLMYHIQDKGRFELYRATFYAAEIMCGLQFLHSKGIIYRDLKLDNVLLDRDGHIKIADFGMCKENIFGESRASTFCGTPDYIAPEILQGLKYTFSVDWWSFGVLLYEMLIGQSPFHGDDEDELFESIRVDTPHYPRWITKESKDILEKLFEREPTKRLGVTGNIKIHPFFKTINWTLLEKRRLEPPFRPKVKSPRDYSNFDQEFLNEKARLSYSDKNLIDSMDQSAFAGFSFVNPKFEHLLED
# Chain of UniProt Q7L7X3 (whole entry, looked up): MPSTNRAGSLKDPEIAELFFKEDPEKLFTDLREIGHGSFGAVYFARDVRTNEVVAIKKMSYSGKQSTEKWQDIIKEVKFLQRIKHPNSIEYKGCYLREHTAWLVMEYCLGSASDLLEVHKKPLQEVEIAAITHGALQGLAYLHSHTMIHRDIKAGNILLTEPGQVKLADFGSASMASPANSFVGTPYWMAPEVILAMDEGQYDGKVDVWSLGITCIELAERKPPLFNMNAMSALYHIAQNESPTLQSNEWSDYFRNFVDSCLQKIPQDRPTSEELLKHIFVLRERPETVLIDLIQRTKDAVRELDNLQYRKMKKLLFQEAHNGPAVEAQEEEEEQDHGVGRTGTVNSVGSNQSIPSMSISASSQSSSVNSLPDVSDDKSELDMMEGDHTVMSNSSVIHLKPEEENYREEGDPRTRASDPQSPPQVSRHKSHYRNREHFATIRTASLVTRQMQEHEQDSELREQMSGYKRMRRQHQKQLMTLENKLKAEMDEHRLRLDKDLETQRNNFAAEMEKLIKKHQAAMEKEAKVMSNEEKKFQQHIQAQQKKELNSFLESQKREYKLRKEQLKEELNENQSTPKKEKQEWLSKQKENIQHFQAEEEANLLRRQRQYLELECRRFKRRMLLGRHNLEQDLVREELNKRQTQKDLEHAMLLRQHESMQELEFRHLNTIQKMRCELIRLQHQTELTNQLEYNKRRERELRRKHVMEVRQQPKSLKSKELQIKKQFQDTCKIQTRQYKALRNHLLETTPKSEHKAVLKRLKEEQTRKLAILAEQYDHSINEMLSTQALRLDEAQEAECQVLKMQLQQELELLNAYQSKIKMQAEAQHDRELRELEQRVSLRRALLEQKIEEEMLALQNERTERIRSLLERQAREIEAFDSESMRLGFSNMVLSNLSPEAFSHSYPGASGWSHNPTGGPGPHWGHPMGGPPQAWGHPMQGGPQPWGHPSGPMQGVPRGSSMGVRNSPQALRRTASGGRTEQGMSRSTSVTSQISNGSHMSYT
# Chain of UniProt Q8TDC3 (whole entry, looked up): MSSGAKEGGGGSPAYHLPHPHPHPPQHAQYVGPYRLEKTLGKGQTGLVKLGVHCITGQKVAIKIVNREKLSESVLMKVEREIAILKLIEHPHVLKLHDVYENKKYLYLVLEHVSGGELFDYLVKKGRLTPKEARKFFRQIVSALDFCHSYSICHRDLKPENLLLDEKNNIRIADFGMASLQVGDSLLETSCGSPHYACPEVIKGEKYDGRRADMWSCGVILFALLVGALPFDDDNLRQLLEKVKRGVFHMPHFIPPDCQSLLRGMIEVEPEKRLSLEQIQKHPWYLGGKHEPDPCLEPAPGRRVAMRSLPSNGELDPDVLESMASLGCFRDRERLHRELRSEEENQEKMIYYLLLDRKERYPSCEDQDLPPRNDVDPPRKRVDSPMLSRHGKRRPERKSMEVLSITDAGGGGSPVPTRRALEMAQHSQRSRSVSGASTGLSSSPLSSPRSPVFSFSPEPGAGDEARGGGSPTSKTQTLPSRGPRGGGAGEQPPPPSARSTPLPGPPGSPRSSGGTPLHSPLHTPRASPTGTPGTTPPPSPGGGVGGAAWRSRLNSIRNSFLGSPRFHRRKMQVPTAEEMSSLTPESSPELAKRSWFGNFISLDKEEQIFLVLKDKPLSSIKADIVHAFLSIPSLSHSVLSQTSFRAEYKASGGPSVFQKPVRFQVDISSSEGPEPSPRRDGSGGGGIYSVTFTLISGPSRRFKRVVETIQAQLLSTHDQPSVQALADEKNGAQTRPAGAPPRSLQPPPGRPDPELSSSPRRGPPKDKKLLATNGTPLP
# Chain of UniProt P78362 (whole entry, looked up): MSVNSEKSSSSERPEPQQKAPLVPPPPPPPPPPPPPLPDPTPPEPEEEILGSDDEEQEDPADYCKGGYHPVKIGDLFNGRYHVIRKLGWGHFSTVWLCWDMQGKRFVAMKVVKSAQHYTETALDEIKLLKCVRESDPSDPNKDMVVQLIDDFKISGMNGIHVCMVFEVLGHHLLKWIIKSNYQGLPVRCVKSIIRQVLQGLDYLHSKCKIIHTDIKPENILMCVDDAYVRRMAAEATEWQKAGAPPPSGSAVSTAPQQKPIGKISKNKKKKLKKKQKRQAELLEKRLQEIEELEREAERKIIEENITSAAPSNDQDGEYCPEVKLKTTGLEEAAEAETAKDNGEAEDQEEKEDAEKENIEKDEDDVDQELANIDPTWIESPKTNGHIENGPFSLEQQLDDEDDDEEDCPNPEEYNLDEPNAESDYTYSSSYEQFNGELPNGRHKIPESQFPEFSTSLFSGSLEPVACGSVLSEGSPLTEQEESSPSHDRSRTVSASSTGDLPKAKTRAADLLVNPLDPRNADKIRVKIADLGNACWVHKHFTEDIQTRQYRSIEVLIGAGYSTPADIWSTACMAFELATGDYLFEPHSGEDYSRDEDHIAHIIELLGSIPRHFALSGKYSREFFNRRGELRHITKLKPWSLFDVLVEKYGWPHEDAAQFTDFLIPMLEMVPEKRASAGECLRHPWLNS

# Set 1 — read-out: cell-free assay; method: competition with immobilised ligand; tested at: 1 µM
# SMILES: O=S(=O)(NC1CCC(c2cc(F)ccc2F)(S(=O)(=O)c2ccc(Cl)cc2)CC1)C(F)(F)F (stereo not drawn)
target,remaining binding
"Epidermal growth factor receptor (EGFR, Homo sapiens, UniProt P00533, del752-759)",100%
"Myosin light chain kinase, smooth muscle (MYLK, Homo sapiens, UniProt Q15746)",100%
"Tyrosine-protein kinase Yes (YES1, Homo sapiens, UniProt P07947)",89%
"Serine/threonine-protein kinase 4 (STK4, Homo sapiens, UniProt Q13043)",100%
"Tyrosine-protein kinase ABL1, non-phosphorylated (ABL1, Homo sapiens, UniProt P00519)",88%
"Fibroblast growth factor receptor 2 (FGFR2, Homo sapiens, UniProt P21802)",84%
"Epidermal growth factor receptor (EGFR, Homo sapiens, UniProt P00533, G719S)",100%
"Cytoplasmic tyrosine-protein kinase BMX (BMX, Homo sapiens, UniProt P51813)",93%
"SNF-related serine/threonine-protein kinase (SNRK, Homo sapiens, UniProt Q9NRH2)",100%
"Serine/threonine-protein kinase PLK2 (PLK2, Homo sapiens, UniProt Q9NYY3)",100%
"Serine/threonine-protein kinase TAO1 (TAOK1, Homo sapiens, UniProt Q7L7X3)",100%
"Ephrin type-B receptor 1 (EPHB1, Homo sapiens, UniProt P54762)",100%
"SRSF protein kinase 2 (SRPK2, Homo sapiens, UniProt P78362)",65%
"Serine/threonine-protein kinase BRSK1 (BRSK1, Homo sapiens, UniProt Q8TDC3)",92%
"Protein kinase C delta type (PRKCD, Homo sapiens, UniProt Q05655)",100%

# Set 2 — matrix: plasma
# Compound: O=C1CCC(N2Cc3cc(C4CCN(Cc5ccccc5)CC4)ccc3C2=O)C(=O)N1 (stereo not drawn)
species,route,dose,time,concentration [ng/mL]
male Sprague-Dawley rat,intravenous,1 mg/kg,6 h,14.1
male CD-1 mouse,intravenous,1 mg/kg,1 h,87.5
male Sprague-Dawley rat,intravenous,1 mg/kg,30 min,87.9
male Sprague-Dawley rat,oral,3 mg/kg,2 h,72.7
male CD-1 mouse,oral,3 mg/kg,15 min,236

# Set 3 — organism: Cryptosporidium parvum; method: time-kill; cells: HCT-8; strain: nanoluciferase-expressing; direction: higher = more parasites
# Compound: CN(C(=O)c1ccn2ncc(-c3ccc(C(N)=O)cc3)c2c1)c1ccc(C#N)cn1
tested at,time,parasite luminescence
0.02743 µM,72 h,133000 RLU and 171000 RLU
0.00914 µM,72 h,180000 RLU and 143000 RLU
0.00914 µM,4 h,69100 RLU and 89100 RLU
2.222 µM,8 h,103000 RLU and 99700 RLU
0.00305 µM,48 h,166000 RLU and 179000 RLU
0.7407 µM,72 h,15400 RLU and 15700 RLU
20 µM,24 h,97300 RLU and 90000 RLU

# Set 4 — species: mouse; matrix: microsomes or S9; tested at: 2 µM; time: 0.5 h
SMILES,remaining compound
Clc1ccc(-c2nnc3ccc(Cl)nn23)c(Cl)c1,53.1%
O=C(OC1CCc2ccccc2C1=O)c1ccccc1O (stereo not drawn),86.3%
COc1ccc(CNC(=O)c2oc3ccc4c(c3c2C)C=CC(C)(C)O4)cc1OC,25.2%
COc1cc(=O)n2c(c1C(=O)Nc1ccc3c(c1)OCCO3)CCCC2,50.8%
Cc1c(C)n(CCN2CCOCC2)c2ncn3nc(-c4ccc(Cl)cc4Cl)nc3c12,> 100%
O=C(O)CC1NC(=O)N(c2ccc(Cl)cc2)C1=O (stereo not drawn),85.7%
